Results pooled from the literature.
Compare with care: the assays were run in different laboratories. ± marks the error that the study gave.

Brc1ccccc1-c1nnc(CSc2nnnn2-c2ccccc2)o1
remaining compound (rat plasma; 1 h): 98.6%

[Br-].c1ccc(-n2nc(-c3ccccn3)n[n+]2-c2ccccc2)cc1
remaining compound (HPLC; fetal bovine serum; 24 h): 100%

O=C(O)Cc1cc(F)ccc1Nc1c(Cl)cccc1Cl
remaining compound (human liver microsomes; 30 min, added: NADPH): 44 ± 1%

C[N+]1(CC(=O)OC2CCCCCCCCCCC2)CCCCC1
remaining compound (mouse liver microsomes; 60 min, without NADPH): 91%

CCCC(CCC)NC(=O)c1ccc(O)c(OC)c1
remaining compound (rat liver microsomes; 1.0 µM, 5 min): 106%

CC(=O)N[C@@H](CC(C)C)C(=O)N[C@H](C(=O)N[C@@H](Cc1ccccc1)C(=O)N[C@]1(C)CCCCCCC=CCCC[C@@](C)(C(=O)N[C@@H](CO)C(=O)N[C@@H](C)C(=O)N[C@@H](C)C(N)=O)NC(=O)[C@H](CC2CCC2)NC(=O)[C@H](CCC(N)=O)NC(=O)[C@H](C)NC(=O)[C@H](Cc2c[nH]c3ccccc23)NC(=O)[C@H](Cc2ccc(O)cc2)NC(=O)[C@H](CCC(=O)O)NC1=O)[C@@H](C)O
remaining compound (HCT-116 whole cell homogenate; 1 µM, 4 h): ~90%

CSCC(NC(=O)c1cc(Cl)ccc1Cl)C(=O)NC(CC(C)C)B(O)O (centres unmarked)
remaining compound (monkey liver microsomes; 3 µM, 60 min, pH 7.4, added: NADPH): 51 ± 0.54%

Cc1ccc(OCC(=O)N(Cc2cccs2)c2ccn[nH]2)cc1
remaining compound (dog liver microsomes; 10 µM, 60 min, added: NADPH): ~7.67%

CCCC(CCC)NC(=O)c1ccc(OC)c(O)c1
remaining compound (rat liver microsomes; 1.0 µM, 20 min): 68.4%

C=C1C[C@@]23CC[C@H]4[C@@](C)(CCC[C@@]4(C)C(=O)O[C@@H]4O[C@H](CO)[C@@H](O)[C@H](O)[C@H]4O)[C@@H]2CC[C@]1(O[C@@H]1O[C@H](CO[C@H]2O[C@H](CO)[C@@H](O)[C@H](O)[C@H]2O)[C@@H](O)[C@H](O)[C@H]1O[C@@H]1O[C@H](CO)[C@@H](O)[C@H](O)[C@H]1O)C3
remaining compound (HPLC; Britton-Robinson buffer; 0.05 % w/v, time not given, pH 2; relative to: initial): 94.1 ± 0.98%

Clc1cccc(Cl)c1Nc1ccccc1Cc1nnn[nH]1
remaining compound (glucuronidation; human liver microsomes; 30 min, added: UDPGA): 100 ± 8.4%

O=c1c2ccccc2[se]n1CCCCCCn1[se]c2ccccc2c1=O
remaining compound (mouse blood; 24.4 µM, 2 h, 37 °C): 64%

O=C(O)C(F)(F)c1ccccc1Nc1c(Cl)cccc1Cl
remaining compound (human liver microsomes; 30 min, added: NADPH): 28 ± 5%

C[C@@H](O)[C@H](NC(=O)[C@@H](NC(=O)[C@@H](N)CCCCN)[C@@H](C)O)C(=O)N[C@@H](CCCCN)C(=O)N[C@@H](CO)C(=O)O
remaining compound (LC-MS/MS; mouse dermal skin extract; 40 µg/mL, 30 min, pH 7.4, 37 °C): 3.2%

COC[C@H](NC(=O)[C@H](CCc1ccccc1)NC(=O)CN1CCOCC1)C(=O)N[C@H](/C=C/S(C)(=O)=O)CC(C)C
remaining compound (human and mouse plasma; 6 h): > 85%

CC1(C)C(=CC=C(C=CC2=[N+](CCC[N+](C)(C)C)c3ccc(S(=O)(=O)[O-])cc3C2(C)C)Oc2ccc(CCC(=O)[O-])cc2)N(CCC[N+](C)(C)C)c2ccc(S(=O)(=O)[O-])cc21
remaining compound (100% serum; 24 h, pH 7.4, 37 °C): 99%

C=C(NC(=O)[C@@H]1CCCN1C(=O)C(C)(C)NC(=O)OCc1ccccc1)C(=O)N[C@@H](C)C(=O)OC
remaining compound (1H NMR; DMSO-d6; 40 min, room temperature, added: cysteamine 2 equiv): 65%

CC12CC3CC(C1)CC(NC(=O)NC1CCC(Oc4ccc(C(=O)O)cc4)CC1)(C3)C2 (centres unmarked)
remaining compound (human liver microsomes; 1 µM, 30 min, 37 °C, 1 mg/mL microsomes, added: NADPH): 64 ± 6%

CCc1c2c(nc3ccc(O)cc13)-c1cc3c(c(=O)n1C2)COC(=O)[C@@]3(CC)OC(=O)[C@H](N)C(C)C
remaining compound (rat plasma; 5 µM, 120 min, 37 °C): 40%

[Ru+2].c1ccc(-c2cccc(-c3ccccn3)n2)nc1.c1cnc(-c2cnccn2)cn1.c1cnccn1
remaining compound (water; 24 h, 37 °C): 100%

OC(CN1CCC2(CC1)CC(O)c1ccc3ccccc3c1O2)c1ccc(F)c(F)c1 (centres unmarked)
remaining compound (mouse liver microsomes; 60 min): 15.6%

Fc1cc(Cl)c(Nc2ccccc2Cc2nnn[nH]2)c(Cl)c1
remaining compound (glucuronidation; human liver microsomes; 30 min, added: UDPGA): 107 ± 2.2%

CS(=O)(=O)c1ccc(-c2nnc(/C=C/c3nnc(-c4ccc(C#N)cc4)o3)n2-c2ccccc2Cl)nc1
remaining compound (mouse liver microsomes; concentration not given, time not given): 96%

C[C@H](CCC(=O)NCCc1ccc(-c2ccccc2)cc1)[C@H]1CC[C@H]2[C@@H]3CC[C@@H]4CC(=O)CC[C@]4(C)[C@H]3CC[C@]12C
remaining compound (human plasma; 2 h): 96.9%

COC(=O)c1ccc2c(c1)NC(=O)/C2=C(\Nc1ccc2c(c1)CCN2C(=O)CN1CCOCC1)c1ccccc1
remaining compound (beagle dog plasma; 1 µM, 4 h, 37 °C): 105%

CC(C)(CN)S[Se]Cc1ccc(-c2cccc(C(O)c3ccc(Cl)c(Cl)c3)c2)cc1 (centres unmarked)
remaining compound (rat liver microsomes with NADPH; 1 h): 77%

CCCn1cnc(C[C@H](NC(=O)c2cnccn2)C(=O)N2CCC[C@H]2C(N)=O)c1
remaining compound (HPLC; rat plasma; 500 µM, 18 h, 37 °C): 60%

COc1cc(C2c3cc4c(cc3C(OC3OC5COC(C)OC5C(O)C3O)C3COC(=O)C23)OCO4)cc(OC)c1OC(=O)OC1C=CCCC(C)(C(=O)NC(CC(=O)O)C(=O)O)CC1 (centres unmarked)
remaining compound (mouse plasma; 1 µM, time not given, 37 °C): 65.8%

CO[C@@H](C(N)=O)[C@H](NC(=O)c1ccc(NC(=O)c2ccc([N+](=O)[O-])cc2)cc1)C(=O)Nc1ccc(C(=O)Nc2ccc(C(=O)Nc3ccc(C(=O)O)cc3)c(O)c2OC(C)C)cc1
remaining compound (rat plasma; 4 h): 66%

CCCCCCCCCCCCCCCC(=O)OC[C@H]1O[C@@H](n2cc(F)c(N)nc2=O)CS1
remaining compound (dog plasma; 1 µM, 90 min, 37 °C; relative to: 0 min): 11%

CC12CC3(C)CC(C)(C1)CC(NC(=O)NC1CCC(Oc4ccc(C(=O)O)cc4)CC1)(C2)C3 (centres unmarked)
remaining compound (human liver microsomes; 1 µM, 30 min, 37 °C, 1 mg/mL microsomes, added: NADPH): 0.7 ± 0.2%

CC1=C(C2=C(C)C(=O)c3c(cc(O)c(O)c3Cc3ccccc3)C2=O)C(=O)c2cc(O)c(O)c(Cc3ccccc3)c2C1=O (racemic)
remaining compound (solid; 100 days, room temperature): 98 ± 0.5%

C=C1C(=O)OC2C1CCC(COC(=O)Nc1ccc(C(F)(F)F)cc1)=C1CCC(C)(O)C12 (centres unmarked)
remaining compound (HPLC; mouse serum; 24 h, 50% and 100% serum): 25 to 50%

O=C(Cc1ccc(-c2ccc(OCCN3CCOCC3)cc2)cn1)NCc1ccc(F)cc1
remaining compound (mouse liver microsomes; 30 min, added: NADPH): 38.6 ± 0.6%

COc1cc(NC(C)=O)c2c(c1O)-c1c(OC)c(OC)cc3c1C(C2)N(C)CC3 (centres unmarked)
remaining compound (rat brain homogenate; 5 µg/mL, 24 h, room temperature, post-preparative storage): 92.1 ± 3.1%

[Ru+2].c1ccc(-c2cccc(-c3ccccn3)n2)nc1.c1ccc2nc(-c3ccc4ccccc4n3)ccc2c1.c1cnccn1
remaining compound (water; 24 h, 37 °C): 63%

CC1=C(C=O)C(C)(C)CC=C1
remaining compound (mouse plasma; 500 µM, 4 h): 31%

Cc1cc(N)nc(C[C@@H]2CNC[C@@H]2OCCNCC(F)(F)c2cccc(F)c2)c1
remaining compound (in vitro metabolic stability; 60 min, added: NADPH): 69%

For quick reference, copied from above:
Brc1ccccc1-c1nnc(CSc2nnnn2-c2ccccc2)o1
remaining compound (rat plasma; 1 h): 98.6%

[Br-].c1ccc(-n2nc(-c3ccccn3)n[n+]2-c2ccccc2)cc1
remaining compound (HPLC; fetal bovine serum; 24 h): 100%

O=C(O)Cc1cc(F)ccc1Nc1c(Cl)cccc1Cl
remaining compound (human liver microsomes; 30 min, added: NADPH): 44 ± 1%
